Measured values collected from several papers.
Parts stem from different laboratories: compare values within a part only. Substitutions count along the parent as printed.

Block 1
Target: RNA binding protein fox-1 homolog 2, RRM domain, GST-SBP tag (RBFOX2, Homo sapiens, UniProt O43251-10, residues 100-194)
Technique: RNA Bind-n-Seq
Form: RNA
Medium: in vitro
Tested at: 365 nM
Notes: natural RNA segment, single round, ends assumed
Relative to: no-protein control
Direction: higher = stronger binding
Quantity: RBNS enrichment (R)
Target sequence (chain): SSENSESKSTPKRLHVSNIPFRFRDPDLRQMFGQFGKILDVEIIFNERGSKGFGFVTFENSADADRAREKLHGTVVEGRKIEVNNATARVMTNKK
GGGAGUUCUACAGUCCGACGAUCAAAGUUGUGGCCUGGCCUUGAAUCCUCUAUUAAUUACUGUGUGAGCCAGAGGGAACUGCCCUGCAAGGGUGGGCCCCCAGCCGGCAGGGGAACUUUCUAGACUCCCGCUCUGGAAUUCUCGGGUGCCAA: 0.231
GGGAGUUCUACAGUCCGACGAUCGACCAGGAGGUUGGUAAGAGUGACUAACCAGCCUAACUUUAAUACACAUGUAUAAAGAUGUUCACAGAGAAAGAUGCUCUGUAGAGAAUUUGCUACCGAAGUUGGCUCAAUGGAAUUCUCGGGUGCCAA: 0.416
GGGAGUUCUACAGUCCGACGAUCCCGGCCACAGGCAGAGGGAAAGGAACAGGUCAGAGGCGUUGCUCUGGCAGAGGCGGCUCGGGCUGCCCAUCGUGUUUCUGCGGGGUUGAGGUGGGCUCCCUUCUUUGUAGUGGAAUUCUCGGGUGCCAA: 0.994
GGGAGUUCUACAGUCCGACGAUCAAAUGAUAAUAUUGUGUAUUAAGACAUUCCUUAAUUAGGACAAAAUGGCUGCUGUAUAUUUACUAUAUGGAGUUCUGAGUUAAAUACCAUCCUUAAUACUGGGAACAGAAUGGAAUUCUCGGGUGCCAA: 0.484
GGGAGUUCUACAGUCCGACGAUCGGCGGCCAAGCACAAACUGGGGGAGAGGAGGCCGCCAGCCCGGAGGCUGCAGCCCAGAAACUCUACCUCAUCCACACUGGUGCAGGGAGCCCUCCUUGAACUGACCUUUGUGGAAUUCUCGGGUGCCAA: 0.529
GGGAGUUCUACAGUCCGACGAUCCCAGUACCUAACAUUUCUCAUCCACUUCAAAAGCUGUUCUGACUGCCAGCUGGCUGAUCUAAGCUCCUGAGGAAUGUCUCCUCUCAAAGGAAUUUUUCCCUCCAAAGGCCUGGAAUUCUCGGGUGCCAA: 0.334
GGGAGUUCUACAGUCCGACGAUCAAUUCUAAAGUUAGAAGUGUUCUUAAGUUGAUAUUUACUCUCUUGGUCUUGGUAGCCCUAUUAUAUCAUUGCAGACACAGUGUUGUGCAUGUGUGUAUUGUAUAUGUGCAUGGAAUUCUCGGGUGCCAA: 36.2
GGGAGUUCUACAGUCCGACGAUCUUUGUUCCCAAUGUCAGCCACCAUGCCUUAGCAGCUGAACAAUCGAGCCUCAUGCUCAUGAAAUCAUGGUCCCAGGCGGCUCCACCUCAAAGAGAAAGCCUGGAAGGAAAUGGAAUUCUCGGGUGCCAA: 0.311

Block 2
Target: Ras GTPase-activating protein-binding protein 1, C-terminal RGG region (G3BP1, Homo sapiens, UniProt Q13283)
UniProt Q13283, sequence (whole entry, looked up): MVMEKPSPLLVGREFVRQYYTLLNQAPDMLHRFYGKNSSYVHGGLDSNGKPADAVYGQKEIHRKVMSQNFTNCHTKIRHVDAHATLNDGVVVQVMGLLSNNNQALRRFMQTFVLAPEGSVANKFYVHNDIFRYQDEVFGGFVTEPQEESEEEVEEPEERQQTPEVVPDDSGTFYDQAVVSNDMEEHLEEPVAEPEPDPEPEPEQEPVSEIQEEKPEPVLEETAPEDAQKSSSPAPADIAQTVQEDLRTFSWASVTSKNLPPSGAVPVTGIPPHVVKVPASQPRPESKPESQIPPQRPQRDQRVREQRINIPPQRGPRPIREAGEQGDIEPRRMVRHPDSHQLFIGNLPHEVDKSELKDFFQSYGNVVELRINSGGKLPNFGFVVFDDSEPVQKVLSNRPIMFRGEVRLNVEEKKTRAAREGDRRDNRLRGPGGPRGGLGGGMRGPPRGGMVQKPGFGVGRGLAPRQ
Technique: RNA Bind-n-Seq
Form: RNA
Medium: in vitro
Tested at: 1 µM
Notes: whole 134-nt RNA, ends assumed
Together with: 150 mM KCl
Relative to: input library
Direction: higher = stronger binding
Quantity: log2 enrichment
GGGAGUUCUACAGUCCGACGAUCGAGGAGCUGCUGCUGGAGCCCGAGCCGGAGCCCGAGCCCGAAGAGGAGCCGCCCCGGCCCCGCGCCCCCCCGGGAGCUCCGGGCCCUGGGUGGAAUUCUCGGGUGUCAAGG: -1.27
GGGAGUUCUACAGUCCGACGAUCAGUCCUGUGCUACACAUCGUAUGUACCGAAUCGGGGAGGGGAAAGGGGUUUUUGGGGAAAGUAUUAUGUUACGCCGUUCGGAUCUGCACUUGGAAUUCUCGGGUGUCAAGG: 2.48
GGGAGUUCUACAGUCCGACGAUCCACAGACAACACGCACCCACACAGACACAGAGGGAAGGGGUUGGGAUGGGGACAGGGUGCACAGCAGGGCGGGGUAGGACCACAGCCCCUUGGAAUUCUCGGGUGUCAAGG: -1.02
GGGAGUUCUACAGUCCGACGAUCGCAGGAAGUAAAAACAAAUGGAAAUGCUUCGGAUAGUGGCAGGGGUGGGGGUUGCUAAGGACAGGGUGGGAUGGGAGUGGGUAAAGAGUUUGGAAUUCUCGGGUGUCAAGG: 1.44
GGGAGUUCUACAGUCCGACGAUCAAGUCCUGUGCUACACAUCGUAUGUACCGAAUCGGAAAAAAAGGUUUUUUUGGUGGAAAGUAUUAUGUUACGCCGUUCGGAUCUGCACUUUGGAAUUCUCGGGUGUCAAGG: -2.15
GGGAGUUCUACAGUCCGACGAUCUAACUUUAGAGGAGGAUCUGAUGGAUAUGGCAGUGGACGUGGAUUUGGGGAUGGCUAUAAUGGGUAUGGAGGAGGACCUGGACGUGGCAAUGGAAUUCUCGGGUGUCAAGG: -1.04
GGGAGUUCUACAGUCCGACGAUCCACAGACAACACGCACCCACACAGACACAGAGGGUAGGGGUUGGGAUGGGGACAGGGUGCACAGCAGGGCGGGGUAGGACCCCAGCCCCUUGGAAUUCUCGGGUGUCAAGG: -0.199
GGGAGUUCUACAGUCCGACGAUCCUGUGCUACACAUCGUAUGUACCGAAUCGGUUUUUUUGGGGUUUUUUUGGGUUUUUUUGGGAAAGUAUUAUGUUACGCCGUUCGGAUCUGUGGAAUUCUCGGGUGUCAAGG: -1.27

Single results of other studies
P1: viral docking peptide; KGVKRKLFAEDSS; partner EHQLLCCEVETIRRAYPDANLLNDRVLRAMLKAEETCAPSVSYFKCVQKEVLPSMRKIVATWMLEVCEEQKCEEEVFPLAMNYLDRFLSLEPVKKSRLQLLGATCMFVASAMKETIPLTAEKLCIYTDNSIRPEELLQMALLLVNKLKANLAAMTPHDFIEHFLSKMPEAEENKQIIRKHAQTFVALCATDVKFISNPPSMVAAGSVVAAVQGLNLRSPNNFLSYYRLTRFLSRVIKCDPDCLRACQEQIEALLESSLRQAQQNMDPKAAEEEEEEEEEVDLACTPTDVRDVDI
P2: PafA, mature enzyme, eGFP fusion (Elizabethkingia meningoseptica, UniProt Q9KJX5); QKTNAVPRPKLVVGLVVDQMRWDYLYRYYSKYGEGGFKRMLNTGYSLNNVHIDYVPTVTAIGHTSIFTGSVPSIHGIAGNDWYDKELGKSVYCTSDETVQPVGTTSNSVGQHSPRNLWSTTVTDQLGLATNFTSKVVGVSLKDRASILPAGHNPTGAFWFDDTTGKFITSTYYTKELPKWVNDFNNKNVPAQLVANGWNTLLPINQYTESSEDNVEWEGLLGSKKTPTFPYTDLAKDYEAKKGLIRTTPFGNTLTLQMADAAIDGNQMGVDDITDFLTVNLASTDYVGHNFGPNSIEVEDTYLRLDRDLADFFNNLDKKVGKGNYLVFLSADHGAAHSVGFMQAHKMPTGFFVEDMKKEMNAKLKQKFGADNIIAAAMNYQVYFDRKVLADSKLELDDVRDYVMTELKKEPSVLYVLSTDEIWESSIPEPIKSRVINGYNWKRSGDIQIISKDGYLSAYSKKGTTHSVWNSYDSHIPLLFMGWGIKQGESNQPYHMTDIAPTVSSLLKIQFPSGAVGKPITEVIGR
P1 V3R — normalised enrichment score (CCND1, cyclin fold, Cln2 fusion (human); yeast growth competition, sequencing; yeast; strong parent motif; relative to: not given, higher = stronger binding): 0.0866
P2 V136A — phosphate dissociation constant (inorganic phosphate, free oxyanion; microfluidic competitive inhibition; in vitro, cell-free expressed; not given, derived from inhibition constants, unchanged parent 615000 nM; lower = stronger binding): 594 µM
